Published values from different studies.
Lines come from different studies, so protocols differ.
CYP3A7: Cytochrome P450 3A7 (CYP3A7, Homo sapiens, UniProt P24462)
UniProt P24462, sequence (whole entry, looked up): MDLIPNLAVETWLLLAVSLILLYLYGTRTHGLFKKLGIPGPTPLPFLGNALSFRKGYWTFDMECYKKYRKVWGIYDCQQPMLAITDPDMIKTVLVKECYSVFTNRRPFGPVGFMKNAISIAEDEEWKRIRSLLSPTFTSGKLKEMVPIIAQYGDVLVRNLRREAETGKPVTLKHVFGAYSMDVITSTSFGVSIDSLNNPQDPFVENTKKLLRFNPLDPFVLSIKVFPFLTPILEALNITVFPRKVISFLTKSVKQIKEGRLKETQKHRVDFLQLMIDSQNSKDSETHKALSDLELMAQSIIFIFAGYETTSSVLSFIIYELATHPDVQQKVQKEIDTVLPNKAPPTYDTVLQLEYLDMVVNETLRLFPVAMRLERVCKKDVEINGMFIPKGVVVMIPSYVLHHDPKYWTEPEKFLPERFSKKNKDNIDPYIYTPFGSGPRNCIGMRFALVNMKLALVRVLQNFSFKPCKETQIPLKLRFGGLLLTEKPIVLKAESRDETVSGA
ALDH1A2: Retinal dehydrogenase 2 (ALDH1A2, Homo sapiens, UniProt O94788)
UniProt O94788, sequence (whole entry, looked up): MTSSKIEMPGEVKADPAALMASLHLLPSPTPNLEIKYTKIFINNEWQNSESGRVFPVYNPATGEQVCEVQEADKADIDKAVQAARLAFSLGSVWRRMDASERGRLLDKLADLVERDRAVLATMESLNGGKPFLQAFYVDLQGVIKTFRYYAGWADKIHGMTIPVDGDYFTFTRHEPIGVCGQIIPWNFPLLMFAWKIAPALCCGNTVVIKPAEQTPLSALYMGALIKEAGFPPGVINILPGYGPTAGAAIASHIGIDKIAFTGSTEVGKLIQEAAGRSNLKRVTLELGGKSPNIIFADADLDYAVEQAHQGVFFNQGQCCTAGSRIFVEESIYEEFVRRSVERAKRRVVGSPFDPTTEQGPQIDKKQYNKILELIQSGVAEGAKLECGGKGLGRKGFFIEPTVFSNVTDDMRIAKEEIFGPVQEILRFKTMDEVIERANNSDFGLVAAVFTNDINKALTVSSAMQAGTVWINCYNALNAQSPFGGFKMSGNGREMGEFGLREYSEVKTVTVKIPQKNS
CYP2D6: Cytochrome P450 2D6 (CYP2D6, Homo sapiens, UniProt P10635)
UniProt P10635, sequence (whole entry, looked up): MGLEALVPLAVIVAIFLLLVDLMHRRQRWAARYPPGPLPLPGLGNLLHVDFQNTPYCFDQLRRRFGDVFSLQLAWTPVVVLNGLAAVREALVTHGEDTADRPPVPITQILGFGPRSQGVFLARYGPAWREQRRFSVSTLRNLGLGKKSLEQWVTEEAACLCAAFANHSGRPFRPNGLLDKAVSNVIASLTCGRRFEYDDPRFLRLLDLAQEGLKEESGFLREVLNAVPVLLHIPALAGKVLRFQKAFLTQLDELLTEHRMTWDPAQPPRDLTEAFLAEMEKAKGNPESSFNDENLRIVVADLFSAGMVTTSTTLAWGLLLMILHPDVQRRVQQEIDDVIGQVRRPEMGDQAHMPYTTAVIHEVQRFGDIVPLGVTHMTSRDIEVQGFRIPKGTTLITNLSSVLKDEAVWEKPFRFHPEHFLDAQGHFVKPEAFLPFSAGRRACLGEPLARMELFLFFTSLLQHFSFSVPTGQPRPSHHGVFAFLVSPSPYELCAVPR
KCNH2: Voltage-gated inwardly rectifying potassium channel KCNH2 (KCNH2, Homo sapiens, UniProt Q12809)
UniProt Q12809, sequence (whole entry, looked up): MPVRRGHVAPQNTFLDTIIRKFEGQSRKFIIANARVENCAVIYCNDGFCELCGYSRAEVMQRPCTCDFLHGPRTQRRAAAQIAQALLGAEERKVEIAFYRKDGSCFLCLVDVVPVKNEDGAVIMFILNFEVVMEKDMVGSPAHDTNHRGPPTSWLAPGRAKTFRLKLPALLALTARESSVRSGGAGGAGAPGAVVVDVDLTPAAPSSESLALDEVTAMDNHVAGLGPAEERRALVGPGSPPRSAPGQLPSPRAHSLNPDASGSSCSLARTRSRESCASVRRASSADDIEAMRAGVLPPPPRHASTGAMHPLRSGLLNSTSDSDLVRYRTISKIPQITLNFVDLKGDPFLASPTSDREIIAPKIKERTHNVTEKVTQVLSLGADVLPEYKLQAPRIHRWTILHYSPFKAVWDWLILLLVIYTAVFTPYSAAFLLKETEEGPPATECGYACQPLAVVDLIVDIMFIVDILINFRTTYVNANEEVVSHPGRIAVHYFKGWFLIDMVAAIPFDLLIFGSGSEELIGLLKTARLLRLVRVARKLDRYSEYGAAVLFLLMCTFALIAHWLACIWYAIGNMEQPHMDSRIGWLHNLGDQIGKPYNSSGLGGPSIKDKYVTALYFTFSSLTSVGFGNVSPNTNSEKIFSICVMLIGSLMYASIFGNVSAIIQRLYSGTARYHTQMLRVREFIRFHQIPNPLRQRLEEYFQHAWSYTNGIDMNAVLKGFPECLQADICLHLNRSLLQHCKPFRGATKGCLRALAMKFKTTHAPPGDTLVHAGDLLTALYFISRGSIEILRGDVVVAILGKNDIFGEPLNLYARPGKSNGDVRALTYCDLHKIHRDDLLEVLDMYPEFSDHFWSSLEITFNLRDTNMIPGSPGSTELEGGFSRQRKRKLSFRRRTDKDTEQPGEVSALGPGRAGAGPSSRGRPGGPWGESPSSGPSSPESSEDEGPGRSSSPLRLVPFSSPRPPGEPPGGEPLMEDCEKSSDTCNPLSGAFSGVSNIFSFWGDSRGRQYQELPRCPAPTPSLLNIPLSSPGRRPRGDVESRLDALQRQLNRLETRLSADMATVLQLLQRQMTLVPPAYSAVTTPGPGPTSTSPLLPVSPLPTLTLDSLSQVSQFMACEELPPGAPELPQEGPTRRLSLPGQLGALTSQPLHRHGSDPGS
UGT1A1: UDP-glucuronosyltransferase 1A1 (UGT1A1, Homo sapiens, UniProt P22309)
UniProt P22309, sequence (whole entry, looked up): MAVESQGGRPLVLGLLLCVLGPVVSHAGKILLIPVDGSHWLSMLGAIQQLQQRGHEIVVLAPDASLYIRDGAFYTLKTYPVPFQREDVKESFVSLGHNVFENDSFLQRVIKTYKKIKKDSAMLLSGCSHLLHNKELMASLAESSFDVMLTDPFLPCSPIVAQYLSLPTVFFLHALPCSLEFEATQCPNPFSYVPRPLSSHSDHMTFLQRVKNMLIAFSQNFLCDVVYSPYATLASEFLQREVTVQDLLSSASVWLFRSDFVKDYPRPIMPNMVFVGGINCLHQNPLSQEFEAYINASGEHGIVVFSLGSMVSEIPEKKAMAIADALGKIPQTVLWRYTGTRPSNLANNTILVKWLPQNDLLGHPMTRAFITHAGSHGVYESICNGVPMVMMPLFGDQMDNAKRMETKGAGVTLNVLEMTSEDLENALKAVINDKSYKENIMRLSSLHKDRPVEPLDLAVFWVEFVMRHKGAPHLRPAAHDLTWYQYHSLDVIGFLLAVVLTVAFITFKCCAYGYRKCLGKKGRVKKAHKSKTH
UniProt O15245, sequence (whole entry, looked up): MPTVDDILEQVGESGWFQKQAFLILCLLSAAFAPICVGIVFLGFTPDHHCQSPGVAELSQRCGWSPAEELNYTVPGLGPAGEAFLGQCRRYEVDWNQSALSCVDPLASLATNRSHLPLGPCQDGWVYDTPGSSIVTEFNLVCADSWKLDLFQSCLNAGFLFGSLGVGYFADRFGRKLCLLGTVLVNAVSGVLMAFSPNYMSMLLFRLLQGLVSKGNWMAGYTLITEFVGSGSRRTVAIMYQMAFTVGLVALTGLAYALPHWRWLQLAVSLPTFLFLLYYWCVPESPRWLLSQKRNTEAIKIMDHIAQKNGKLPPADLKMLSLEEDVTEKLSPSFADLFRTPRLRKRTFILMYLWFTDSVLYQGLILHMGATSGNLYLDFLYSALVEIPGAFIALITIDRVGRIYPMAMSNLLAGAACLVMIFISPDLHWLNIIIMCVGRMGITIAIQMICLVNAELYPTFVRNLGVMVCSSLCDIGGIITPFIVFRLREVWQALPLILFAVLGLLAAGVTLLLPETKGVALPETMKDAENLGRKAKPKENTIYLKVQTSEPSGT
UniProt P29597, sequence (whole entry, looked up): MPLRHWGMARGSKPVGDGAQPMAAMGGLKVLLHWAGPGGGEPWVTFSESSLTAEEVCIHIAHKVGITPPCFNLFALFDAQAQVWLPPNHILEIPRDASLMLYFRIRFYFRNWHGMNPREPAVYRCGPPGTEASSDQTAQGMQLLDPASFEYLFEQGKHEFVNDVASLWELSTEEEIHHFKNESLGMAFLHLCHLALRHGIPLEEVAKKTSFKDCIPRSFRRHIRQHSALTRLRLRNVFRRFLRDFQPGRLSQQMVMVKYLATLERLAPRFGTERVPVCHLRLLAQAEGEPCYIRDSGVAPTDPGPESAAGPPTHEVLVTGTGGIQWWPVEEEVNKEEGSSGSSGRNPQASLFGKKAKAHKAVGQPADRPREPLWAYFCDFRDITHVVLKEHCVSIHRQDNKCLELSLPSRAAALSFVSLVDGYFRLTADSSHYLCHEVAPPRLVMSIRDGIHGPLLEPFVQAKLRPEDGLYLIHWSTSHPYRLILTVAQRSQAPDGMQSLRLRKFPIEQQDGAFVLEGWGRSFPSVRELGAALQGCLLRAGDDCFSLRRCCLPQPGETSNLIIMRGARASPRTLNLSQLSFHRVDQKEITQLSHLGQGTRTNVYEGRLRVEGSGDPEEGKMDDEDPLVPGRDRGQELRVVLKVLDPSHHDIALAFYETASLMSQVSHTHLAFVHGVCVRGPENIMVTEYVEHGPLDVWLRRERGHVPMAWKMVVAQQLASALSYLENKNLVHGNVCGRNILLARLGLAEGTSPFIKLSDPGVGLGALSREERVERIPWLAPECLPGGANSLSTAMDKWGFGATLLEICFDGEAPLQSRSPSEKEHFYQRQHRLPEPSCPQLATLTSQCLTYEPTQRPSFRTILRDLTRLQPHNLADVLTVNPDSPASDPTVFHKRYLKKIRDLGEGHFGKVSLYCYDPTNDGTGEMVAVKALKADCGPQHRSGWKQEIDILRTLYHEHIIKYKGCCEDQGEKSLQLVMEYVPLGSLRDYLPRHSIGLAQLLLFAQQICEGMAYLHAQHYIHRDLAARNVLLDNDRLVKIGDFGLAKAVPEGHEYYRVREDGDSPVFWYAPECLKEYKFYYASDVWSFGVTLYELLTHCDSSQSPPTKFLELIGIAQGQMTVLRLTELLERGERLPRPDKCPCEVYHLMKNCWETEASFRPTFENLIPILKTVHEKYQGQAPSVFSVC

CC(C)(C)[C@@H]1NC(=O)O[C@@H]2CCC[C@H]2OC/C=C/C(F)(F)c2nc3ccccc3nc2O[C@@H]2C[C@@H](C(=O)N[C@]3(C(=O)NS(=O)(=O)C4(C)CC4)C[C@H]3C(F)F)N(C2)C1=O
inhibition (CYP3A7; enzyme activity, inhibitor, fluorescence; 20 µM, 10 min, pH 7.4): ≥ 50%

O=C1CC[C@H](N2Cc3cc(N4CCN(CC5CCN(c6ccc([C@@H]7c8ccc(O)cc8CC[C@@H]7c7ccccc7)cc6)CC5)CC4)ccc3C2=O)C(=O)N1
AUC(0-inf) (male Sprague-Dawley rat, plasma; intravenous, 5 mg/kg, fed): 5760 ng·h/mL

CNc1ncc2c(/C=C/C(=O)N3CCC(OC)CC3)nn(Cc3cccc(C(F)(F)F)c3)c2n1
remaining activity (MAP3K5 (Homo sapiens, UniProt Q99683); enzyme activity, inhibitor, radiometric; 1 µM): 84%

Cc1ccc(S(=O)(=O)c2ncccc2[N+](=O)[O-])cc1
IC50 (ALDH1A2; enzyme activity, inhibitor, fluorescence): 0.4 µM

COCCc1ccc(OCC(O)CNC(C)C)cc1 (stereo not drawn)
Tmax (CYP2D6; human, plasma; oral, 100 mg, single dose, healthy volunteers): 1.99 h

CCCCC(=O)Nc1ccc(-c2ccc3ncn(CCC)c(=O)c3c2)cn1
remaining binding (Non-receptor tyrosine-protein kinase TYK2, JH1 (TYK2, Homo sapiens, UniProt P29597); binding, competition with immobilised ligand; 0.5 µM): 90%

Cc1cc([C@@H](C)Nc2ccccc2C(=O)O)c2nc(N3CCC(F)(F)CC3)c(C#N)c(=O)n2c1
remaining binding (ACVR1B (Homo sapiens, UniProt P36896); binding, competition with immobilised ligand; 10 µM): 100%

CNCCN1CCN(c2cnc3c(cc(C(=O)NCc4ccc(Cl)cc4)c(=O)n3CC(=O)N3CC(C)(F)C3)n2)C1=O
inhibition (KCNH2; ion current, inhibitor, patch clamp; 40 µM): 42%

CSc1ccccc1C(=O)NCCn1cc(C(=O)NCc2cccc(C)n2)c(=O)c2cc3c(cc21)OCO3
IC50 (CYP2D6; enzyme activity, inhibitor; human, liver microsomes; 20 min, without NADPH, with preincubation): > 100 µM

CN(C)C(=O)CN1CCN(c2cnc3c(cc(C(=O)NCc4ccc(Cl)cc4)c(=O)n3CC(=O)N3CC(C)(F)C3)n2)C1=O
inhibition (KCNH2; ion current, inhibitor; 40 µM): 42.7%

COc1cccc(-c2n[nH]c(SCc3ccccn3)n2)c1OC
concentration (male Sprague-Dawley rat, plasma; intravenous, 1 mg/kg, 2 h, single dose): 97.1 ng/mL

COc1cc(-c2cncc3c2CN(C)Cc2cc(N4CCNCC4)ccc2-3)cc(OC)c1OC
remaining activity (HASPIN (Homo sapiens, UniProt Q8TF76); enzyme activity, inhibitor; 1 µM): 103%

CC(=O)c1cc(C(=O)N[C@@H](C)Cn2ccc(-c3ccc(C#N)c(Cl)c3)n2)[nH]n1
IC50 (UGT1A1; enzyme activity, inhibitor; human, liver microsomes): 6.4 µM

O=C(O)COc1cccc(-c2nc(Nc3ccc4[nH]ncc4c3)c3ccccc3n2)c1
IC50 (UGT1A1; enzyme activity, inhibitor): 0.629 µM

O=c1[nH]c(=O)c(Cc2cccc(C(F)(F)F)c2)c([C@H]2CC[C@H](c3ccccc3)CC2)[nH]1
inhibition (SLC22A1 (Homo sapiens, UniProt O15245); transporter uptake, inhibitor; 1 µM): < 50%

CN(CCC(=O)O)C(=O)c1ccc2c(c1)CC[C@@H]1[C@@H]2CC[C@]2(C)C(c3cncc(F)c3)=CC[C@@H]12
Ki (UGT1A1; enzyme activity, inhibitor; human, liver microsomes): 1.2 µM

Cc1cnc(C(=O)N[C@H]2CCCCC/C=C\[C@@H]3C[C@@]3(C(=O)NS(=O)(=O)C3CC3)NC(=O)[C@@H]3C[C@@H](Oc4nc5ccccc5c5ccccc45)CN3C2=O)cn1
inhibition (CYP3A7; enzyme activity, inhibitor, fluorescence; 20 µM, 10 min, pH 7.4): ≥ 50%

C=CC(=O)N1CCC(COCC(=O)N2CCN(c3nc(-c4cnc(N)nc4C(F)F)nc(N4CCOC[C@@H]4C)n3)CC2)CC1
remaining binding (CAMKK1 (Homo sapiens, UniProt Q8N5S9); binding, competition with immobilised ligand; 1 µM): 98%

O=C(O)[C@H]1O[C@@H](Oc2ccc([C@@H]3[C@@H](CC[C@H](O)c4ccc(F)cc4)C(=O)N3c3ccc(F)cc3)cc2)[C@H](O)[C@@H](O)[C@@H]1O
IC50 (SLCO1B1 (Homo sapiens, UniProt Q9Y6L6); transporter uptake, inhibitor): 22.7 µM

Nc1ccn([C@@H]2O[C@H](CO)[C@@H](O)C2(F)F)c(=O)n1
viability (HEK293; cell growth or viability, MTT; 0.078125 µg/mL, 48 h): 93.3%

CSc1ccccc1C(=O)NCCn1cc(C(=O)NCc2cccc(C)n2)c(=O)c2cc3c(cc21)OC(F)(F)O3
IC50 (CYP2D6; enzyme activity, inhibitor; human, liver microsomes; 20 min, without NADPH, with preincubation): > 100 µM

Nc1nc2c(s1)C(c1ccccc1Cl)CC(=O)N2 (stereo not drawn)
IC50 (ALDH1A2; enzyme activity, inhibitor, fluorescence): < 10 µM

CCOC(=O)C1=C(CN2CCC[C@@H]2C(=O)Nc2ccc(B(O)O)cc2)NC(c2nccs2)=N[C@H]1c1ccc(F)cc1Br
inhibition (KCNH2; ion current, inhibitor, patch clamp; HEK293; 0.3 µM, pH 7.4): 3.52%

O=C(CCCCCCC(=O)Nc1ccccc1)NO
IC50 (CYP2D6; enzyme activity, inhibitor, fluorescence): 4.89 µM

Excerpt of the above:
Nc1nc2c(s1)C(c1ccccc1Cl)CC(=O)N2 (stereo not drawn)
IC50 (ALDH1A2; enzyme activity, inhibitor, fluorescence): < 10 µM

O=c1[nH]c(=O)c(Cc2cccc(C(F)(F)F)c2)c([C@H]2CC[C@H](c3ccccc3)CC2)[nH]1
inhibition (SLC22A1 (Homo sapiens, UniProt O15245); transporter uptake, inhibitor; 1 µM): < 50%
